Experimental data gathered from unrelated publications.
Protocols differ between the studies behind these lines. pEC50, pIC50: −log10 of the molar value.
Chain of UniProt P37136 (whole entry, looked up): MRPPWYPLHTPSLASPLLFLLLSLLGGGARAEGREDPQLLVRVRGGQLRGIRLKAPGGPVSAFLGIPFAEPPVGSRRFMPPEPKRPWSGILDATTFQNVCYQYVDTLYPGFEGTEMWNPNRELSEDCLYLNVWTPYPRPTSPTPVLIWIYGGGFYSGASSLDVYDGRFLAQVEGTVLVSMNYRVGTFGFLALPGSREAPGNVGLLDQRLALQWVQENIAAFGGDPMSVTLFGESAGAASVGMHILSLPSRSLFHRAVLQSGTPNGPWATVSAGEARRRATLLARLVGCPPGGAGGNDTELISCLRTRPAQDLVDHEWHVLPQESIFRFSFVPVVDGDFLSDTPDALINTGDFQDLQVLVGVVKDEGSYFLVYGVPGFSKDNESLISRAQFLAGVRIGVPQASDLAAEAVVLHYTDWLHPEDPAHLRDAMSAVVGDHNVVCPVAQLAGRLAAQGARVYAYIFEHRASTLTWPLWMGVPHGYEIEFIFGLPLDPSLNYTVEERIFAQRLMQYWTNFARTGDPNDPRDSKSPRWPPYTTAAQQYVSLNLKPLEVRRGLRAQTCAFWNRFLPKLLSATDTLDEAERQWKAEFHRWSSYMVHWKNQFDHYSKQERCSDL
Chain of UniProt P41143 (whole entry, looked up): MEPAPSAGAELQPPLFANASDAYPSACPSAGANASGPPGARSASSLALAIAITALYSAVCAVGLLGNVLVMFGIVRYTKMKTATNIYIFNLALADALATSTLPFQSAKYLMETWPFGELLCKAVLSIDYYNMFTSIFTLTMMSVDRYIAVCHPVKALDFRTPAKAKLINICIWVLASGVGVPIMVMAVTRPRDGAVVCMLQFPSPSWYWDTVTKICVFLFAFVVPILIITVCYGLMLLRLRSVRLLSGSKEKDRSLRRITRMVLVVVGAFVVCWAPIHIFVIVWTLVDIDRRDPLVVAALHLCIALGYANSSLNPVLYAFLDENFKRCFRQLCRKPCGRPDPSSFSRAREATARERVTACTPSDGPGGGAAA

Molecule	tested on	assay	system	setting	scale	measurement	value
SNC80	Delta-type opioid receptor, with Gi1 (OPRD1, Homo sapiens, UniProt P41143)	Gi1 activation, agonist	–	–	–	pEC50	8.53
chicoric acid	IPEC-J2 monolayer	–	–	together with: monensin 50 µM	relative to: without inhibitor	Papp basolateral to apical	no effect
phoxim-oxon	Ache (Rattus norvegicus, UniProt P37136)	enzyme activity, inhibitor, Ellman	rat, postnatal day 1, lung homogenate	15 min, 37 °C	–	pIC50	7.62
deucravacitinib	–	–	healthy human volunteers	across doses	–	half-life	8 to 15 h
maraviroc	–	–	black CYP3A5 extensive metabolizers, plasma	300 mg twice daily	–	Cmax	529 ng/mL
vorinostat glucuronide	–	–	patients, plasma	oral, 300 mg vorinostat three times daily, 3 days, together with: idarubicin	–	Cmax	3.33 µM
semaglutide	–	item: moderate severity	human, safety analysis set	concentration not given, 32 weeks, run-in	–	participants with adverse events	51%

Some of these lines once more:
Molecule	tested on	assay	system	setting	scale	measurement	value
chicoric acid	IPEC-J2 monolayer	–	–	together with: monensin 50 µM	relative to: without inhibitor	Papp basolateral to apical	no effect
